Measured values gathered from unrelated publications.
Parts stem from different laboratories: compare values within a part only. Substitutions count along the parent as printed.

Sample 1 — method: RNA Bind-n-Seq; molecule type: RNA; sample: in vitro; tested at: 200 nM; setting: whole 134-nt RNA, ends assumed; added: 150 mM LiCl; baseline: input library; direction: higher = stronger binding; library: 7-deaza-guanosine replaces G
Target: Ras GTPase-activating protein-binding protein 1, full length (G3BP1, Homo sapiens, UniProt Q13283)
Sequence of UniProt Q13283 (whole entry, looked up): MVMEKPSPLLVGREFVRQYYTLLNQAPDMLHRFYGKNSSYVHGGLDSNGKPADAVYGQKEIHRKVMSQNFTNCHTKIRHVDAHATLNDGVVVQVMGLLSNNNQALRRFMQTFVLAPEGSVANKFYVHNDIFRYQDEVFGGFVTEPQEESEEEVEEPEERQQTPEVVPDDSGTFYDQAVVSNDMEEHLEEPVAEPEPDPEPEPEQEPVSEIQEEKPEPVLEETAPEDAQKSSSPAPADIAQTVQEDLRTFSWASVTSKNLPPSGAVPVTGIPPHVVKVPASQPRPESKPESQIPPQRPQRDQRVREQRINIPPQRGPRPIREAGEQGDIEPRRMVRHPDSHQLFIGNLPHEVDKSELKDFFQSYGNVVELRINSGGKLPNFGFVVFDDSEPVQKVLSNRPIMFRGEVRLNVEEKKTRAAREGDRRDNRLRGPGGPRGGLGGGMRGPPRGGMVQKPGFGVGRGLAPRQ
All sequences stand within: GGGAGUUCUACAGUCCGACGAUC … UGGAAUUCUCGGGUGUCAAGG
| Sequence | log2 enrichment |
| --- | --- |
| ACCAUGCAGGUGGGCAUCUUUGGGAAGUGGGGCAAGGGGGGGAUAGGGAGGGGGGUAACACUUUGGGAACAGGUGGUCCCAGGUCGUCUC | -0.107 |
| AGUCCUGUGCUACACAUCGUAUGUACCGAAUCGGGUUUGGGUUUUUGGGAAAAAGGGAAAGUAUUAUGUUACGCCGUUCGGAUCUGCACU | -0.548 |
| UUUUCUUCUGGGGCAUUUAUCCGUGCUGAUCUUGGUGAAUGGGGCAUGAGUCUAACGAUCAGAGCCCCUAGUGUAGAUUACAGAAACACU | -0.315 |
| CCCUGUGGGCCUUGCUCAGAGCGGAGAAAGCAUUUGUUUGUACAAGAUCCGCAGACGUGUAAAUGUUCCUGCAAAAACACAGACUCGCGU | -0.956 |
| AAGUCCUGUGCUACACAUCGUAUGUACCGAAUCGGGCCCCGGGCCCCGGGCCCCGGAAAGUAUUAUGUUACGCCGUUCGGAUCUGCACUU | -1.36 |
| ACCAUGCAGGUGGGCAUCUUUGGGAAGUGGGGCAAGGGGCGGAUAGGGAGGGGGGUAACACUUUGGGAACAGGUGGUCCCAGGUCGUUUC | 0.287 |
| UCCUGUGCUACACAUCGUAUGUACCGAAUCAAAUUUUUUUAAAUUUAAAUUUUUUUAAAAAAGUAUUAUGUUACGCCGUUCGGAUCUGCA | -2.27 |
| ACCAUGCAGGUGGGCAUCUUUGGGAAGUGGGGCAAGGGGGCGAUAGGGAGGGGGGUAACACUUUGGGAACAGGUGGUCCCAGGUCGUUUC | 0.00676 |
| CACAGACAACACGCACCCACACAGACACAGAGGGAAGGGGUUGGGAUGGGGACAGGGUGCACAGAAGGGCGGGGUAGGACCCCAGCCCCU | 0.0152 |
| CACAGACAACACGCACCCACACAGACACAGAGGGAAGGGGUUGGGAUGGGGACAAAGUGCACAGCAGGGCGGGGUAGGACCCCAGCCCCU | -0.0152 |
| GCAGGAAGUAAAAACAAAUGGAAAUGCUUCGGAUAGUGGCAGGGGUGGGGGUUGCUAAGGAAAGGGUGGGAUGGGAGAGGGUAAAGAGUU | 0.357 |

Sample 2 — method: aptamer microarray, sandwich; molecule type: DNA with 2'F-ANA; sample: in vitro; tested at: 200 nM; added: Cy3 exosite-II aptamer, 400 nM; direction: higher = stronger binding; sequence: GGTTGGTGTGGTTGG
Target: Prothrombin, mature alpha-thrombin (F2, Homo sapiens, UniProt P00734)
Setting: whole 15-mer aptamer, many near background
| Modification | mean fluorescence intensity |
| --- | --- |
| 2'F-ANA at 1 4 5 6 8 11 12 13 | 67.1 a.u. |
| 2'F-ANA at 1 2 3 4 6 7 10 11 13 14 15 | 48.6 a.u. |
| 2'F-ANA at 1 2 3 4 5 7 10 14 15 | 130 a.u. |
| 2'F-ANA at 1 4 7 9 11 12 13 14 | 54.2 a.u. |
| 2'F-ANA at 1 2 6 9 11 15 | 109 a.u. |
| 2'F-ANA at 1 2 3 4 5 7 9 10 13 15 | 47.1 a.u. |
| 2'F-ANA at 3 5 6 7 8 10 11 | 204 a.u. |
| 2'F-ANA at 2 4 6 7 8 12 13 14 15 | 109 a.u. |
| 2'F-ANA at 2 3 4 6 7 8 9 10 12 13 15 | 213 a.u. |
| 2'F-ANA at 1 2 4 10 11 14 15 | 56.8 a.u. |
| 2'F-ANA at 1 2 5 7 8 9 11 12 13 14 | 50.9 a.u. |
| 2'F-ANA at 4 6 7 8 9 10 11 13 14 | 62.9 a.u. |
| 2'F-ANA at 1 2 3 6 8 12 13 | 348 a.u. |
| 2'F-ANA at 3 4 11 13 14 | 318 a.u. |
| 2'F-ANA at 6 7 10 | 184 a.u. |
| 2'F-ANA at 8 10 12 15 | 225 a.u. |
| 2'F-ANA at 3 4 6 7 8 9 12 15 | 879 a.u. |
| 2'F-ANA at 5 11 13 14 | 42 a.u. |
| 2'F-ANA at 1 4 5 6 7 8 12 15 | 134 a.u. |
| 2'F-ANA at 4 5 8 10 12 13 15 | 50.3 a.u. |

Sample 3 — target: CCNA1, cyclin fold, Cln2 fusion (human); method: yeast growth competition, sequencing; sample: yeast; setting: weak parent motif; baseline: not given; direction: higher = stronger binding
Starting sequence: RBL1 docking peptide (human); GSAKRRLFGEDPP; partner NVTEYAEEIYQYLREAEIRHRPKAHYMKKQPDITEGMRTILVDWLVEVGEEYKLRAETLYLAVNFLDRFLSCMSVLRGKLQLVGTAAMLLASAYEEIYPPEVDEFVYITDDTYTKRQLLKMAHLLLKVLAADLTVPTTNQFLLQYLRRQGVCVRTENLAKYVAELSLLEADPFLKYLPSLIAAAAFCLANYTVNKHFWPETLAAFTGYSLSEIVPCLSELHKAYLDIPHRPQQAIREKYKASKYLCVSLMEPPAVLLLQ
| Substitution | normalised enrichment score |
| --- | --- |
| R6V | 0.426 |
| E10W | 0.478 |
| A3T | 0.742 |
| G9P | 0.609 |
| K4V | 0.375 |
| F8P | 0.473 |
| P12T | 0.749 |
| F8M | 0.13 |
| G1H | 0.519 |
| E10A | 0.368 |
| G1R | 0.653 |
| P12D | 0.339 |
| E10M | 0.52 |
| P12L | 0.527 |
| R6E | 0.55 |
| K4G | 0.436 |
| R5N | 0.303 |
| G9T | 0.641 |
| E10V | 0.256 |
| E10C | 0.631 |
| G1S | 0.675 |
| P13E | 0.233 |
| R6A | 0.333 |
| S2A | 0.684 |
| G9N | 1.11 |

Sample 4 — method: protein-binding microarray; molecule type: double-stranded DNA, one strand shown; sample: in vitro; tested at: 250 nM; setting: 60-bp whole probe; added: salmon DNA 0.4 mg/ml; baseline: random background probes; direction: higher = stronger binding; all sequences stand within: GCCTAGCAC … GTCTTGATTCGCTTGACGCTGCTG
Target: Interferon regulatory factor 7, full length, phosphomimetic (IRF7, Homo sapiens, UniProt Q92985, residues 1-503, S101K/S471D/S472D/S475D/S476D/S477D/S483D/S484D/S487D)
Construct (chain): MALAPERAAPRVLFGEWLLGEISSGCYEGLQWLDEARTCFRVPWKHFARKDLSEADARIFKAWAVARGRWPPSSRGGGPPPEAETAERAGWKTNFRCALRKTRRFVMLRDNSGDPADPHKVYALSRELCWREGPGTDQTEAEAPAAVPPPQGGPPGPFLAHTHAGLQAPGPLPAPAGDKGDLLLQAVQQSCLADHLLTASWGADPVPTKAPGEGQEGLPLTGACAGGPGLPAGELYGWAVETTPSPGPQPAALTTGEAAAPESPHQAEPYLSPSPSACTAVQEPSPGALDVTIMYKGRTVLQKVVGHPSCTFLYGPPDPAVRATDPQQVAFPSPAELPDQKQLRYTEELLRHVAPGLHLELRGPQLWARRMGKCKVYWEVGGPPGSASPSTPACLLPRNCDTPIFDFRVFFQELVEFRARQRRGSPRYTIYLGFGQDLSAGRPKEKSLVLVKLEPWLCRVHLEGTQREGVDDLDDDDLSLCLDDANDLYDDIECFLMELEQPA
| Sequence | log fluorescence [z-score] |
| --- | --- |
| GACGGTATCGGGTATCGGGCCGTGCTA | -0.0987 |
| TCATATGCCGACTTTGGAACTGTGCTA | 0.468 |
| CCTCTTTTTTGTTCCACGCCGTGCTAG | 1.44 |
| TTAGATTTCAGACTGGAATAGTGCTAG | 0.752 |
| GATGGACTGGGGTTTCGGGACGTGCTA | 1.01 |
| GGAGGGGGGCGGGGCGGTGGGTGCTAG | 4.86 |
| TTATGTTCCCTTTTCCTTTAGTGCTAG | 3.06 |
| GACGGTCTACTTTTCCTGACGTGCTAG | 0.247 |
| GACGGGCTCGGTCTCGGGACGTGCTAG | 0.337 |
| GACGAACTGAGTCTCGAGATGTGCTAG | 0.909 |
| TCAAGTCCCACATCTCTGACTGTGCTA | 0.802 |
| GACAGTATCGGGTTTCGGGACGTGCTA | 3.14 |
| CACCAGCGAGGGCCCGGGAGGTGCTAG | -0.258 |
| TTTTTTTTACTTCGGGTGACGTGCTAG | 0.633 |
| ATCCCATTAAATTTTAATAAGTGCTAG | 1.19 |
| TCATTTCCCAGAACTGGAACTGTGCTA | 3.14 |
| TTAGATTTCATACTGGATTAGTGCTAG | 0.12 |
| GACGGACTAGGTCTCGGGACGTGCTAG | 0.0181 |

Sample 5 — target: MAFK, bZIP domain (human); method: DHFR protein complementation; sample: yeast; baseline: wild-type JUN-FOS pair; direction: higher = stronger binding
Setting: single substitutions, most at no-binding floor
Starting sequence: JUN, bZIP domain (human); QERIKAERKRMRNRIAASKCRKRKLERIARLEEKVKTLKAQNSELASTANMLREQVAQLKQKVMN; partner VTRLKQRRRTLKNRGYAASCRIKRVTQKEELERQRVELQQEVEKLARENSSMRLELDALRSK
| Substitution | binding fitness [natural log] |
| --- | --- |
| S43D | -1.5 |
| A49T | -1.54 |
| L38E | -1.5 |
| R30G | -1.44 |
| A29D | -1.27 |
| K36N | -1.44 |
| L45Q | -1.49 |
| L52I | -1.23 |
| K36F | -1.56 |
| L31R | -1.52 |
| A57P | -1.5 |
| K36H | -1.5 |
| E33H | -1.55 |
| L59C | -1.47 |
| T48W | -1.43 |

Excerpt of the above (sample 5):
| Substitution | binding fitness [natural log] |
| --- | --- |
| S43D | -1.5 |
| A49T | -1.54 |
| L38E | -1.5 |
| R30G | -1.44 |
| A29D | -1.27 |
| K36N | -1.44 |
| L45Q | -1.49 |
| L52I | -1.23 |
| K36F | -1.56 |
